Measured values from different studies.
Protocols differ between the studies behind these lines. “And” joins repeats or separate records; there may be more than shown. ± marks the error that the study gave.
ESR1: Estrogen receptor (ESR1, Homo sapiens, UniProt P03372)
Genome polyprotein NS3 helicase domain: Genome polyprotein, NS3 helicase domain (Hepatitis C virus genotype 1b, UniProt Q9WMX2)
Glutamate receptor 2: Glutamate receptor 2 (Homo sapiens, UniProt P42262)
WD repeat-containing protein 91 WD40 domain, residues 392–747: WD repeat-containing protein 91, WD40 domain, residues 392–747 (Homo sapiens, UniProt A4D1P6)
Chain of UniProt A4D1P6 (whole entry, looked up): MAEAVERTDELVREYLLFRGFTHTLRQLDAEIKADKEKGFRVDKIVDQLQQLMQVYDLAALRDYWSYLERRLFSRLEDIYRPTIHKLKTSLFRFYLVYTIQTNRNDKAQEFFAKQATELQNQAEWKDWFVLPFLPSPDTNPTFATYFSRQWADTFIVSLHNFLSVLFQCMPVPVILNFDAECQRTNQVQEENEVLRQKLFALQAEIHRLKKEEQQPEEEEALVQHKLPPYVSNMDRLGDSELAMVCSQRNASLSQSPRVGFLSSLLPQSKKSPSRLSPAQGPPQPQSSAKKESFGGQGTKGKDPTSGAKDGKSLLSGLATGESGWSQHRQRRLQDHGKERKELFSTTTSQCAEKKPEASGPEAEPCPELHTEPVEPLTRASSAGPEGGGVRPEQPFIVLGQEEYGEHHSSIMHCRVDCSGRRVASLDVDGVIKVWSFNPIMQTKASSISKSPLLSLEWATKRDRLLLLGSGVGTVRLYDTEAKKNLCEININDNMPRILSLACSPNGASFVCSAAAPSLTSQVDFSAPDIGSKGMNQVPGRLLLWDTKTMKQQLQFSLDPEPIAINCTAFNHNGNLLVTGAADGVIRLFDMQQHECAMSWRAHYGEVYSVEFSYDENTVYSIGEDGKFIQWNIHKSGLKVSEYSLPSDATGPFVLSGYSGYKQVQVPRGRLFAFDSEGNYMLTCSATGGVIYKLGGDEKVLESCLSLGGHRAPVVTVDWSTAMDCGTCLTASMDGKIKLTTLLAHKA
Chain of UniProt Q64663 (whole entry, unmodified, looked up): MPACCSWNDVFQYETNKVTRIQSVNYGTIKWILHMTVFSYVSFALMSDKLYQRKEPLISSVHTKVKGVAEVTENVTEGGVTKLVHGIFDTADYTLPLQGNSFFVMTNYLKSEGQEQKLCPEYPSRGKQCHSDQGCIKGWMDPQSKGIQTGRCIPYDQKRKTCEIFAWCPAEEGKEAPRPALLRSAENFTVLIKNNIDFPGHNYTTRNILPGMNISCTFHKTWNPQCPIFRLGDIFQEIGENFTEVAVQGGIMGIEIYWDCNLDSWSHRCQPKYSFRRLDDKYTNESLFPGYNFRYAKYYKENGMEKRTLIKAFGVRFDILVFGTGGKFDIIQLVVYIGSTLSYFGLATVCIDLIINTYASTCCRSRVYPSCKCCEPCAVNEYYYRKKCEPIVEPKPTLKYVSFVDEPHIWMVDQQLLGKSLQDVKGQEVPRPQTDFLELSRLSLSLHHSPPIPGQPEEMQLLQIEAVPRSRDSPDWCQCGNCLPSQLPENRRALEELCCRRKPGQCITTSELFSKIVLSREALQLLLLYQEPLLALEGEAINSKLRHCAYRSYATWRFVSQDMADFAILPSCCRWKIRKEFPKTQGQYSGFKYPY
Chain of UniProt O76090 (whole entry, unmodified, looked up): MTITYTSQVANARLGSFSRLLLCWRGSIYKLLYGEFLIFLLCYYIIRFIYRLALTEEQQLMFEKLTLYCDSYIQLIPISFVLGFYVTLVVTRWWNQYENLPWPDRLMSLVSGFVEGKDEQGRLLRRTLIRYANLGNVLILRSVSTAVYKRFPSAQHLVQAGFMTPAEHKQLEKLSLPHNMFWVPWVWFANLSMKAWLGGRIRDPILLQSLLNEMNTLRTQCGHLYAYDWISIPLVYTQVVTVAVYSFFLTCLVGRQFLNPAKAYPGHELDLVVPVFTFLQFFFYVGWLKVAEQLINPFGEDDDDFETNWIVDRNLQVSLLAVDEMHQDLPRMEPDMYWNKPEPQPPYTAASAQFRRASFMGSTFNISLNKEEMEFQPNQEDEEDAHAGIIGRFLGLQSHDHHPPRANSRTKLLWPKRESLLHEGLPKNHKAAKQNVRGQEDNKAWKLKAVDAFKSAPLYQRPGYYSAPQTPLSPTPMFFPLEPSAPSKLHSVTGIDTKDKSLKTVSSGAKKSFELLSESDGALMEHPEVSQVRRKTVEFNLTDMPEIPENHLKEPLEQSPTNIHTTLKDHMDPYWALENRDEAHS

Under “thermal stability ratio”, `O=C(COP(=O)(O)O)[C@@H](O)[C@H](O)[C@H](O)COP(=O)(O)O` is recorded as 0.534 (RAN (Homo sapiens, UniProt P62826); thermal proteome profiling; HepG2 cell lysate; concentration not given, 57 over 37 °C, mean; reference: compound over control).
`COc1ccc(-c2coc3cc(O)ccc3c2=O)cc1O` has a selectivity ratio of 0.541 (ESR1; array formation; PRL-HeLa; reference: EC50 ERβ over EC50 ERα).
`FC(F)(F)c1ccccc1-n1ccnc1` gave an inhibition of 0% (Genome polyprotein NS3 helicase domain; DNA binding, inhibitor; hepatitis C virus; 100 µM, with: Cy5-dT15 DNA).
With `O=C1NC(=O)C(c2ccccc2)(c2ccccc2)N1` the activation was 4% (Glutamate receptor 2; ion current, agonist, SyncroPatch patch clamp; HEK293; 30 µM).
For `Cc1nc2sccn2c(=O)c1CCN1CCC(=C(c2ccc(F)cc2)c2ccc(F)cc2)CC1`, the inhibition was 0% (Genome polyprotein NS3 helicase domain; DNA binding, inhibitor; hepatitis C virus; 100 µM, with: Cy5-dT15 DNA).
For `COc1ccc(F)cc1C(=O)NCc1ccc(-c2nn([C@@H](C)C(F)(F)F)c(N)c2C(N)=O)cc1`, the remaining activity was 99.2 ± 0.6% (FGFR2 (Homo sapiens, UniProt P21802); kinase activity, inhibitor, HotSpot radiometric; 100 nM, with: ATP 10 µM).
The -TΔS of `CC(=O)N[C@H](C(=O)N[C@@H](CC(N)=O)C(=O)N[C@@H](CCCCN)C(=O)N1CCC[C@H]1C(=O)N[C@@H](CC(C)C)C(=O)N1CCC[C@H]1C(=O)N1CCC[C@H]1C(=O)N[C@@H](CC(C)C)C(=O)N1CCC[C@H]1C(=O)N[C@H](C(=O)N[C@@H](C)C(N)=O)C(C)C)C(C)C` is reported as 2.15 ± 0.239 kcal/mol (Tyrosine-protein kinase Fyn, SH3 domain (FYN, Homo sapiens, UniProt P06241); binding, isothermal titration calorimetry; 50 mM sodium phosphate, 100 mM NaCl; pH 7.0, 25 °C).
`O=c1nc(SCc2cc(F)cc(C(F)(F)F)c2)nc(SCc2ccc3sccc3c2)[nH]1` gave a linear DNA of 0% (TOP2A (Homo sapiens, UniProt P11388); DNA cleavage; 7.8 µM, replicate 1).
For `Cl.Cl.Cl.Ic1ccc(N2CCN(Cc3c[nH]c4ncccc34)CC2)cc1`, the inhibition was 6% (Genome polyprotein NS3 helicase domain; DNA binding, inhibitor; hepatitis C virus; 100 µM, with: Cy5-dT15 DNA).
With `O=c1cc(-c2ccc(O)cc2)oc2cc(O)c([C@@H]3O[C@H](CO)[C@@H](O)[C@H](O)[C@H]3O)c(O)c12` the selectivity ratio was 1.02 (ESR1; array formation; PRL-HeLa; reference: EC50 ERβ over EC50 ERα).
The current density of `Nc1ccc(C(=O)O)cc1` is reported as -7.71 pA/pF and -16.3 pA/pF and -18 pA/pF and -14.4 pA/pF and -7.93 pA/pF and -27.9 pA/pF (BEST1, with wild-type BEST1 (Homo sapiens, UniProt O76090, D302A); ion current, whole-cell patch clamp; HEK293 co-expressing mutant and wild-type; concentration not given, voltage -100 mV).
`Cc1ccc(N2CC(C(N)=O)CC2=O)cc1` (centres unmarked) gave a fold enrichment of 1.29 (SPRY domain-containing SOCS box protein 2, SPRY domain (Homo sapiens, UniProt Q99619); binding, affinity selection mass spectrometry; reference: other proteins in batch).
For `Nc1ncnc2c(CN3CC(CSc4ccc(Cl)cc4)[C@H](O)C3)c[nH]c12` (some centres unmarked), the k3 was 16 ± 8 min⁻¹ (Aminodeoxyfutalosine nucleosidase (Helicobacter pylori, UniProt Q9ZMY2); forward isomerization rate).
The fraction bound of `O=C(O)C1CCCNC1` (centres unmarked) is reported as 0.00162 (SLC6A6 (Homo sapiens, UniProt P31641, Y138A); binding, microscale thermophoresis; 32.7 nM, fitted curve; higher = more binding).
`COc1cc(/C=C2\CCC/C(=C\c3ccc(O)c(OC)c3)C2=O)ccc1O` gave a ΔH of -23.76 ± 0.0669 kcal/mol (haemin; binding, isothermal titration calorimetry; pH 7.4, 37 °C).
The potentiation of `Cn1c(=O)c2[nH]cnc2n(C)c1=O` is reported as 101% (Glutamate receptor 2; ion current, positive allosteric modulator, SyncroPatch patch clamp; HEK293; 3 µM).
`CC(C)[C@H](N)C(=O)O` gave a product formation of 1.58 µM (N-alpha-acetyltransferase 80 (NAA80, Homo sapiens, UniProt Q93015); substrate, DTNB; 2 mM, 30 min, 37 °C, with: acetyl-CoA 500 µM).
The kcat of `CC1=CC(=O)C(C)=C(C)C1=O` is reported as 9.07 ± 0.35 s⁻¹ (ancestral FSP1; oxidoreductase activity, substrate; with: co-substrate 100 µM fixed).
The SPR response of `O=C(c1cc2cccn2cn1)N1CCN(c2ccc([N+](=O)[O-])c3cnccc23)CC1` is reported as 11.9 RU and 4.5 RU (WD repeat-containing protein 91 WD40 domain, residues 392–747; binding, SPR single-concentration screen; 45 µM).
For `C=CCc1cccc(/C=N/NC(=O)CN2CCN(Cc3ccccc3)CC2)c1O`, the inhibition was 1% (Genome polyprotein NS3 helicase domain; DNA binding, inhibitor; hepatitis C virus; 100 µM, with: Cy5-dT15 DNA).
The activation of `C=C1C(=O)O[C@@H]2C[C@@]3(C)CCCC(=C)[C@@H]3C[C@H]12` is reported as 0.76 fold (RORC (Homo sapiens, UniProt P51449); reporter gene, Gal4 hybrid reporter; 10 µM; reference: vehicle).
For `CC[C@@H]1[C@H](F)C(=O)N[C@@H]1COc1nccc2cc(C(N)=O)c(OC)cc12`, the inhibition was -14.4% (EIF2AK4 (Homo sapiens, UniProt Q9P2K8); ATP-site probe binding, ActivX profiling, refers to: GCN2; THP-1 cell lysate; 0.2 mM, Lys1 site).
The normalized current of `Nc1ncnc2c1ncn2[C@@H]1O[C@H](COP(=O)(O)OP(=O)(O)OP(=O)(O)O)[C@@H](O)[C@H]1O` is reported as 1 (P2X purinoceptor 7 (P2rx7, Rattus norvegicus, UniProt Q64663, Q143A); ion current, agonist, two-electrode voltage clamp; Xenopus laevis oocytes; 1500 µM; reference: highest concentration response).
With `COc1cc(F)ccc1-c1ncnc(Nc2cccc(C[S@](C)(=N)=O)c2)n1` the remaining activity was 87% (EPHA3 (Homo sapiens, UniProt P29320); kinase activity; 10 µM, with: 10 µM ATP).
With `Nc1ncnc2c1ncn2[C@@H]1O[C@H](COP(=O)(O)CP(=O)(O)OP(=O)(O)O)[C@@H](O)[C@H]1O` the calcium influx was 100% and 92.2% (P2X purinoceptor 1 (P2RX1, Homo sapiens, UniProt P51575, L218T); calcium influx; 10 µM; reference: ionomycin response).
For `Nc1ncnc2c1ncn2[C@@H]1O[C@H](COP(=O)(O)OP(=O)(O)O)[C@@H](O)[C@H]1O`, the ΔH was -0.129 kcal/mol (GUK1 (Homo sapiens, UniProt Q16774); ITC; molar ratio 3.279).
`C[N+](C)(C)CCCCCC[N+](C)(C)C.[Cl-].[Cl-]` has an inhibition of 0% (Genome polyprotein NS3 helicase domain; DNA binding, inhibitor; hepatitis C virus; 100 µM, with: Cy5-dT15 DNA).
For `N#CC1CCN(C(=O)c2ccc(SCc3nc4ccccc4[nH]3)cc2)CC1`, the SPR response was -2.7 RU and 0 RU (WD repeat-containing protein 91 WD40 domain, residues 392–747; binding, SPR single-concentration screen; 45 µM).
The remaining activity of `O=C(O)c1ccc(Nc2ncc3c(n2)-c2ccc(Cl)cc2C(c2c(F)cccc2F)=NC3)cc1` is reported as 35% (EphB1(h); kinase activity; 1 µM).
The remaining binding of `C=CC(=O)N1CCC(COCC(=O)N2CCN(c3nc(-c4cnc(N)nc4C(F)F)nc(N4CCOC[C@@H]4C)n3)CC2)CC1` is reported as 97% (Tyrosine-protein kinase ABL1, phosphorylated (ABL1, Homo sapiens, UniProt P00519); KINOMEscan; 1 µM).
For `COc1c(C#N)cccc1CC(=O)Nc1ccc2c(c1)CCCN2C(=O)c1ccccc1`, the binding was 104% and 103% (WD repeat-containing protein 91, residues 392–747 (Homo sapiens, UniProt A4D1P6); SPR dose-response titration; concentration not given, 1:1 binding model).
Under “fraction of accessible fluorescence”, `CCS(=O)(=O)N1CC(CC#N)(n2cc(-c3ncnc4[nH]ccc34)cn2)C1` is recorded as 0.53 (ORM1 (Homo sapiens, UniProt P02763); modified Stern-Volmer; 293 K).
Under “plasma membrane localization”, `CC(=C/C(=O)O)/C=C/C=C(\C)C1C=C2C(C)(C)CCCC2(C)O1` (centres unmarked) is recorded as 0 (Rhodopsin (RHO, Homo sapiens, UniProt P08100, T17M); immunostaining, refers to: opsin; COS-7 transfected; 0.05 µM, unit not given; reference: surface over total stained cells).
`CC[C@H](C)[C@H](NC(=O)[C@H](CCCCN)NC(=O)CNC(=O)[C@@H](NC(=O)[C@@H](NC(=O)[C@H](CCSC)NC(=O)[C@H](Cc1c[nH]cn1)NC(=O)CN)[C@@H](C)O)C(C)C)C(=O)N[C@@H](Cc1ccc(O)cc1)C(=O)N[C@@H](C)C(=O)N[C@@H](C)C(=O)N[C@@H](CCSC)C(=O)N[C@@H](CCSC)C(=O)N[C@H](C(=O)N[C@@H](CCSC)C(=O)N[C@@H](CCC(=O)O)C(=O)N[C@@H](Cc1ccc(O)cc1)C(=O)N[C@@H](Cc1ccc(O)cc1)C(=O)N[C@@H](CCCNC(=N)N)C(=O)N[C@@H](CCC(N)=O)C(=O)N[C@@H](CO)C(=O)N[C@@H](CCCCN)C(=O)N[C@@H](C)C(=O)N[C@@H](CCCCN)C(=O)N[C@@H](CCCCN)C(=O)N[C@@H](CC(C)C)C(=O)N[C@@H](CCC(N)=O)C(=O)N[C@@H](C)C(=O)N[C@@H](CCSC)C(=O)N[C@@H](CCCNC(=N)N)C(=O)O)[C@@H](C)CC` gave a ΔS of 23.4 ± 1 cal/mol/K (Calmodulin-1, Ca2+-bound C-lobe (CALM1, Homo sapiens, UniProt P0DP23); binding, isothermal titration calorimetry; pH 7.4, 15 °C, C-lobe, CaV2.1 IQ domain, with: Ca2+).
With `CC(C)[C@H]1c2ccc(F)cc2CC[C@@]1(CCN(C)CCCc1nc2ccccc2[nH]1)OC(=O)C1CC1` the inhibition was 1% (Genome polyprotein NS3 helicase domain; DNA binding, inhibitor; hepatitis C virus; 100 µM, with: Cy5-dT15 DNA).
Under “potentiation of ACh response”, `CCOc1ccc(NC(=O)O[C@@H](Cn2nc(C(C)C)cc2C(C)C)C(C)C)cc1` is recorded as 2 to 3 fold (CHRNA7 (Homo sapiens, UniProt P36544); two-electrode voltage clamp; Xenopus oocytes; concentration not given, with: ACh 1000 µM).
For `CCCCC[S+]([O-])c1n[nH]c(N)n1` (centres unmarked), “log fold enrichment” read -0.0585 (Transducin-like enhancer protein 4 (TLE4, Homo sapiens, UniProt Q04727); binding, affinity selection mass spectrometry; reference: other proteins in batch).
With `CC(C)(CO)Cc1cc(C(C)(C)C)c(O)c(C(C)(C)C)c1` the inhibition was 0% (Genome polyprotein NS3 helicase domain; DNA binding, inhibitor; hepatitis C virus; 100 µM, with: Cy5-dT15 DNA).
The SPR response of `N#CC1CCN(C(=O)c2ccc(SCc3cn4ccccc4n3)cc2)CC1` is reported as -6.4 RU and -0.9 RU (WD repeat-containing protein 91 WD40 domain, residues 392–747; binding, SPR single-concentration screen; 45 µM).
The inhibition of `Nc1cc(=O)[nH]c(N)n1` is reported as 1% (Genome polyprotein NS3 helicase domain; DNA binding, inhibitor; hepatitis C virus; 100 µM, with: Cy5-dT15 DNA).
The ΔΔG of `CC[C@H](C)[C@H](NC(=O)[C@H](CCCCN)NC(=O)CNC(=O)[C@@H](NC(=O)[C@@H](NC(=O)[C@H](CCSC)NC(=O)[C@H](Cc1c[nH]cn1)NC(=O)CN)[C@@H](C)O)C(C)C)C(=O)N[C@@H](Cc1ccc(O)cc1)C(=O)N[C@@H](C)C(=O)N[C@@H](C)C(=O)N[C@@H](CCSC)C(=O)N[C@@H](CCSC)C(=O)N[C@@H](C)C(=O)N[C@@H](CCSC)C(=O)N[C@@H](CCC(=O)O)C(=O)N[C@@H](Cc1ccc(O)cc1)C(=O)N[C@@H](Cc1ccc(O)cc1)C(=O)N[C@@H](CCCNC(=N)N)C(=O)N[C@@H](CCC(N)=O)C(=O)N[C@@H](CO)C(=O)N[C@@H](CCCCN)C(=O)N[C@@H](C)C(=O)N[C@@H](CCCCN)C(=O)N[C@@H](CCCCN)C(=O)N[C@@H](CC(C)C)C(=O)N[C@@H](CCC(N)=O)C(=O)N[C@@H](C)C(=O)N[C@@H](CCSC)C(=O)N[C@@H](CCCNC(=N)N)C(=O)O` is reported as 0.55 (Calmodulin-1, Ca2+-bound N-lobe (CALM1, Homo sapiens, UniProt P0DP23); binding, isothermal titration calorimetry; N-lobe, CaV2.1 IQ domain, unit not given, with: Ca2+; reference: wild-type IQ domain).
